Published values collected from several papers.
A part holds a random share of what one study measured.

Series 1 — method: protein binding microarray; form: double-stranded DNA, one strand shown; medium: in vitro; concentration: not given; baseline: not given; reading: higher = stronger binding; quantity: E-score
Target: Histone acetyltransferase KAT6A, winged helix 1, GST fusion (KAT6A, Homo sapiens, UniProt Q92794, residues 1-85)
Setting: 8-mer, flanks averaged, mean of 2 arrays, mostly near background
Target sequence (chain): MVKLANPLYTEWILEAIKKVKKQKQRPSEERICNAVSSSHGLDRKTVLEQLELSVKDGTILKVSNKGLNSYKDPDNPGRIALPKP
ACAGCTTG: -0.133
CGAATTAG: -0.139
ACGTAGAG: -0.1
TTAGTGAA: -0.221
ATCCTCTC: -0.251
CCACGAGA: -0.251
CGGTCCAG: 0.0759
CCGTGCTA: 0.193
TAGCGACA: 0.00305
AATATCCC: 0.0253
CTCAATCA: -0.114
ATTTTCGG: 0.0108
AAAATGGG: -0.144
AGCAAGGG: -0.166
CCGGTACG: 0.301
AAATGTAA: -0.131
GATGCTTA: 0.0205
AATGCCGA: 0.257
TCTCATAA: -0.161
GGACTTGA: -0.124
ACCACCGT: 0.16
CTTGAATC: -0.204
ATTTACTG: -0.211
TAGGAACA: -0.142
ATGCCCAC: -0.181

Series 2 — method: competition protein-binding microarray; form: double-stranded DNA, one strand shown; medium: in vitro; concentration: 2 µM; together with: Cbf1 competitor, 0.05 µM; reading: higher = stronger binding; quantity: fluorescence intensity
Target: Phosphate system positive regulatory protein PHO4, full length, GST-tagged (PHO4, Saccharomyces cerevisiae, UniProt P07270, residues 1-312)
Setting: whole 60-bp probe, lowest competitor level
Residues (chain): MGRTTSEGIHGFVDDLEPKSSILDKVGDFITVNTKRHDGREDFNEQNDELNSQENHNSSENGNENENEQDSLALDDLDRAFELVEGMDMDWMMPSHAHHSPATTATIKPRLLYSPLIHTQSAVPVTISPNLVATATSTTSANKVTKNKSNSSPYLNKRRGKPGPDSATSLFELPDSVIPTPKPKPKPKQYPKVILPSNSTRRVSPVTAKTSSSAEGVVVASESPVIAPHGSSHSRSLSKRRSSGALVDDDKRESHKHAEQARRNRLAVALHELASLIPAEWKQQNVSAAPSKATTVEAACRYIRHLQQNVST
AAGGTAATGGTATGGCTCGTGACGGATTTACCCAACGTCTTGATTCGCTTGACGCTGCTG: 6830 a.u.
GAAGAACCTTTACTACATGTGCTGCCAACCAAACCAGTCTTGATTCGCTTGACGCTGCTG: 8880 a.u.
CATACCCAACCTTTTCACGTGTACTAAGATATTTGTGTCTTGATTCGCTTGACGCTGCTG: 14300 a.u.
TGCGCAACAACTTGTCACCTCACTTTATGTCTAGAAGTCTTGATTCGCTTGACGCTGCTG: 2960 a.u.
GATCTGGTCGTACGGCCCGTGCTTTCAGAATTGGTGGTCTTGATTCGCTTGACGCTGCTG: 10100 a.u.
TCTCTTTTGCATCGAAACGTGGGTAGATCGTACCGGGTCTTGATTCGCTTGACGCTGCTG: 13900 a.u.
TTCTTCCAACACCGACACGTTGTTCTCGCTCTCTTCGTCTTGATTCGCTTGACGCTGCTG: 11500 a.u.
TTGTTCCTCTGAAAGCACGGGCCGGCGCACTCCAATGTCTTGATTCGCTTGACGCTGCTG: 7100 a.u.
GGGCCCGCAGTTTTGCACATGCGCGTTACTGGATCGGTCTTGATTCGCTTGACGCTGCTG: 9070 a.u.
AGGAGCCCTGATTTCTTCGTGCGATATCGGTGCGGGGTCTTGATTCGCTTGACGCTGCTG: 4770 a.u.
TATGGGTTGTGAAGTCACGTGGTTTGGGTTCAAATCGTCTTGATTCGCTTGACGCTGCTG: 13800 a.u.
CCGCAAGTATGCTGTCATGTGTGCTTAGCAATTACGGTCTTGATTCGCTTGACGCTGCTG: 8350 a.u.
GGAGAAACCAATGGGGGCGTGGGTAATGGAAACATTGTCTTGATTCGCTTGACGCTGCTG: 11000 a.u.
TAAGAAGAAAGATCGAACGTGATTGTAATGCTCCAAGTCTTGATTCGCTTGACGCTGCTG: 8370 a.u.
CTAACGAAGGTTTTTCACGTGCCATACAAGCCAAGTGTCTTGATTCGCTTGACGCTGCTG: 14900 a.u.
AAATTACTAAGTTGTCACACCACTTACCCCGTATGAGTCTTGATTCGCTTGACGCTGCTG: 5040 a.u.
CCGAAAAGCAACTGGCACGTTTTGAGCTCGGTGTTTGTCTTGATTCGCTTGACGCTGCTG: 13700 a.u.
ATAAGCCAGAATCCACACGGGAACTTCGGACTTTGCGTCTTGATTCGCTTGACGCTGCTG: 5160 a.u.
CTAACGAAGGTTTGTAAGGTGGGTGACAAGCCAAGTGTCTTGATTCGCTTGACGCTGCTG: 3760 a.u.

Series 3 — method: RNA Bind-n-Seq; form: RNA; medium: in vitro; concentration: 365 nM; baseline: no-protein control; reading: higher = stronger binding; quantity: RBNS enrichment (R)
Target: RNA binding protein fox-1 homolog 2, RRM domain, GST-SBP tag (RBFOX2, Homo sapiens, UniProt O43251-10, residues 100-194)
Setting: natural RNA segment, single round, ends assumed
Construct (chain): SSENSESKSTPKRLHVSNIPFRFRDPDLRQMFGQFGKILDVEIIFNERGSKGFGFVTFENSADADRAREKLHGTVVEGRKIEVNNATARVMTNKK
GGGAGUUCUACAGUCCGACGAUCGGCCUGUCAUCCAUGGGGCCAUUGCAGGCACUCUGCCGCCCGACCUUGAGGGCUGUGCCAAUCCUAGUGAACCAAAAUGCAAACAACUCACACAAGUGAAAAGCUCCCUGUGGAAUUCUCGGGUGCCAA: 0.752
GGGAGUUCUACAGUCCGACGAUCAACUCACCCCAGCAUAUUUUUAGGCCUCAUCUCAGUGCCUAUGAGGGGCCUGCCAGAAAAGUCACUAACCUGUCUCAGUGUGGCCUUGUCCAGCCUUGUGUUUUCUGUAAUGGAAUUCUCGGGUGCCAA: 1.63
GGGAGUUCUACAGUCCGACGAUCUACGCUGCUGUCACUUUCUGUCCAGGAGCUGGCACCCCAGGUGUUCUGAGACCUUGAGGGACCCAGACCUUUGGGUCCAAGAGUUUCCCAAACAGCCACGCCUCUCAGGAUGGAAUUCUCGGGUGCCAA: 0.304
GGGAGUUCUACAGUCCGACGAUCAAGAGAAGAAAUGAGUGACCAUCCAGCCUUUCCCAAUUAGACUUCCUCUCCUUCCACCCCUCAUUUCCUUUUUGCACACAUUACAGGUGGUGUGUUCUGUGAUAAUGAAAUGGAAUUCUCGGGUGCCAA: 0.627
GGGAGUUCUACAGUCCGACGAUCGCCUAGGGCAACAGAUGUCCUGACUAAUCUGGCUUCUGGUUCCCGGUCCAUCCCUAUUUACAAAGCUAUGGGCCACUGUCAGCACAUUAAACAAGGUGAGGGAGAGUAGCUGGAAUUCUCGGGUGCCAA: 0.366
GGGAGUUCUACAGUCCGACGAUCAGUGAGACAUAUGGGUGAGUCAUAAUAAUCAAAAUAAUUUAUGAAGAGCUGGGUCUGCAAUAGCUAGUCUAAAAACUACUUGUGUGUCAGUCCUCUGGUUAUAGUAUAUAUGGAAUUCUCGGGUGCCAA: 8.3
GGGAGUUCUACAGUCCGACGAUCCUGAGGGGGAAGACGUGGGACCGGAUGGCCCGUCUGAGGUUUGUGGGGUCACUGUGCAAGCUUCCUUAUGGUUUGAACCUCUUGUCAUGUGAUAAAAGUCUCUGUCUCGAUGGAAUUCUCGGGUGCCAA: 1.04
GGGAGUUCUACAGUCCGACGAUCAUGCCUUAUUUAUGUAUUCAUGUUAAAAUUUAGAAUUAUUUUAAAUAAAAACUUUCUCUUAAAGCUUACUGCUUUUGAAUUUAUAACCUAAAACCUGAGAAAAGGGAAUAUGGAAUUCUCGGGUGCCAA: 0.801
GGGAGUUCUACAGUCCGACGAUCAUGGCCGCCCCACUCAGGUGUUCGUUGUUACAGUGCUAAUGGAUCCUGGGUGCAGUAGGCGCUGGGUCCUCCUGACCUCUGUUUCACUGUUUGUGGUAAGGUAGCCACACUGGAAUUCUCGGGUGCCAA: 0.688
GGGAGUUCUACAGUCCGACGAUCAUCCUUGGCCAUGCAGUUAGCACCUUCCUGUCAUGGGGAAGAUAUAGUGAAUUGCCCUGAGCUGCCUUCUUUUCUUUUUAAAAAUUUUUAAAUAAGGUUUUCUUUGUGGGUGGAAUUCUCGGGUGCCAA: 0.721
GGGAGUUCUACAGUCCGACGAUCACGUUGCAGUUUGUUUAAUGUAUGUUAAUUUCACCUGGCUUCAUUCAUUUUCCUUUUUAAAAUUUGUCUUUUAAAUAAACAAACAGAACCCUCUGUGAGGUUGGUGAGAGUGGAAUUCUCGGGUGCCAA: 0.528
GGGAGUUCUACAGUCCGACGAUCCUUGACAUAAUUGCAUUUGGCUUGUCAUGUGCCUGGCAUUAAAAACAAUAUUGAGUUCACAUAAUAGGUAAAUGCUGGAUUUGUUUUGUUUUGUUUUGAAACAGGGUCACUGGAAUUCUCGGGUGCCAA: 0.993

Series 4 — method: RNA Bind-n-Seq; form: RNA; medium: in vitro; concentration: 1 µM; setting: whole 134-nt RNA, ends assumed; together with: 150 mM KCl; baseline: input library; reading: higher = stronger binding; quantity: log2 enrichment
Target: Ras GTPase-activating protein-binding protein 1, C-terminal RGG region (G3BP1, Homo sapiens, UniProt Q13283)
Sequence of UniProt Q13283 (whole entry, looked up): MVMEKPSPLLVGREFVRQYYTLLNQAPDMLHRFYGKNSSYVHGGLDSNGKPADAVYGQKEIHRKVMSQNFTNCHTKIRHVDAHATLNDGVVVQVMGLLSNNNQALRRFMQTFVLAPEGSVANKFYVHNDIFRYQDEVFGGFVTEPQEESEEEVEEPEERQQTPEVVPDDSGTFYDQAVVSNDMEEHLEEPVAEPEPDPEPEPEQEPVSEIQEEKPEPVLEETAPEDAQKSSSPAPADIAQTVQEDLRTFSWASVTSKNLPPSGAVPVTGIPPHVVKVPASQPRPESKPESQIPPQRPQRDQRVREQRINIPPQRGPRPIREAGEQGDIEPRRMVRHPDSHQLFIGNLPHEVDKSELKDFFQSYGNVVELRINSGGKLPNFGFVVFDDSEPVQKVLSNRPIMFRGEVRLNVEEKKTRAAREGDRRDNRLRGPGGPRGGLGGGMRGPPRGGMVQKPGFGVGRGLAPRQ
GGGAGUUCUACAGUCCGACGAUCCACAGACAACACGCACCCACACAGACACAGAGGGAAGGGGUUGGCAUGGGGACAGGGUGCACAGCAGGGCGGGGUAGGACCCCAGCCCCUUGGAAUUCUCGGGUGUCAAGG: -0.636
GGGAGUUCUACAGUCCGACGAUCGCAGGAAGUAAUAACAAAUGGAAAUGCUUCGGAUAGUGGCAGGGGUGGGGGUUGCUAAGGAAAGGGUGGGAUGGGAGUGGGUAAAGAGUUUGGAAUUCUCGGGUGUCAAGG: 1.24
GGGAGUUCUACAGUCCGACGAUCCACAGACAACACGCACCCACACAGACUCAGAGGGAAGGGGUUGGGAUGGGGACAGGGUGCACAGCAGGGCGGGGUAGGACCCCAGCCCCUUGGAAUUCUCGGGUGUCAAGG: -0.232
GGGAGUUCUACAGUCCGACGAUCCAAGUCCUGUGCUACACAUCGUAUGUACCGAAUCGGAAAAAGGUUUUUGGUUUGGAAAGUAUUAUGUUACGCCGUUCGGAUCUGCACUUCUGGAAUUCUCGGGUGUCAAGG: -1.94
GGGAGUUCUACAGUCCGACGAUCGUCCUGUGCUACACAUCGUAUGUACCGAAUCGGGGUGGGGUUUUUGGGGAAAAAGGGGAAAGUAUUAUGUUACGCCGUUCGGAUCUGCACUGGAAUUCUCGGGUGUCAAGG: 0.753
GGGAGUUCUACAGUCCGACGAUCCGGCAGUAGCAGCAGCGCCGGGUCCCGUGCGGAGGUGCUCCUCGCAGAGUUGUUUCUCGAGCAGCGGCAGUUCUCACUACAGCGCCAGGAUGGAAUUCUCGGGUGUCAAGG: -1.38
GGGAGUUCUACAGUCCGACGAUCAAGUCCUGUGCUACACAUCGUAUGUACCGAAUCGGUUUUUUUGGUGGUUUUUUUGGAAAGUAUUAUGUUACGCCGUUCGGAUCUGCACUUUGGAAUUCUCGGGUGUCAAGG: -2.04
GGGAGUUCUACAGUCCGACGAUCCCUCAAGUCCUGUGCUACACAUCGUAUGUACCGAAUCGGGAAGGAAGGAAGGAAAGUAUUAUGUUACGCCGUUCGGAUCUGCACUUCCAGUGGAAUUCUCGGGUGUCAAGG: -0.823
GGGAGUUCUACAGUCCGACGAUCAAGUCCUGUGCUACACAUCGUAUGUACCGAAUCGGGGAAAAGGGAAAAGGAAAAGGGAAAGUAUUAUGUUACGCCGUUCGGAUCUGCACUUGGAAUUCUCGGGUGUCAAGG: -1.37
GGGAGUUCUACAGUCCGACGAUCUGUUCUGCAGAGGGGCGGUGUCAUUACUGAUGAAGAGGAAACCUCUAAGAAGAUAGCUGACCAGUUGGACAACAUUGUGGACAUGCGCGAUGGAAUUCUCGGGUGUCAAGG: -2.01

A few entries again (series 1):
CCGGTACG: 0.301
CGAATTAG: -0.139
TAGCGACA: 0.00305
TCTCATAA: -0.161
ATTTTCGG: 0.0108
CCACGAGA: -0.251
CGGTCCAG: 0.0759
ACAGCTTG: -0.133
ACGTAGAG: -0.1
